Measurements gathered from unrelated publications.
“And” joins repeats or separate records; there may be more than shown. Numbers after ± are the reported error. The star is where a group is joined.
UniProt O60656, sequence (whole entry, looked up): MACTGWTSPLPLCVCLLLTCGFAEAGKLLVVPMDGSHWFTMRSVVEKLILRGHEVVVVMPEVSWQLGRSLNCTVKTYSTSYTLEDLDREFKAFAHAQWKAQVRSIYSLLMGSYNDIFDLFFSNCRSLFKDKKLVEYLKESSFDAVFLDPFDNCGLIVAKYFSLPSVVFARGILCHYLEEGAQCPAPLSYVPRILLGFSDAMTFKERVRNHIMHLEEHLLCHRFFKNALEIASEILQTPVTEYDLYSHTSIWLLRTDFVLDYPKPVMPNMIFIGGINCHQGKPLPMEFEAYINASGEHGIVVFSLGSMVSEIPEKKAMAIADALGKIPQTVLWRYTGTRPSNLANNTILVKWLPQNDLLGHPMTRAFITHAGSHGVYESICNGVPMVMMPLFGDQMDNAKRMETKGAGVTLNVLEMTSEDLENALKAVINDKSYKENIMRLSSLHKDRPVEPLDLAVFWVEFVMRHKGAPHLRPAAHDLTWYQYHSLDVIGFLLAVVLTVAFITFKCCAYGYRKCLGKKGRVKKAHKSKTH
UniProt P52026, sequence (whole entry, looked up): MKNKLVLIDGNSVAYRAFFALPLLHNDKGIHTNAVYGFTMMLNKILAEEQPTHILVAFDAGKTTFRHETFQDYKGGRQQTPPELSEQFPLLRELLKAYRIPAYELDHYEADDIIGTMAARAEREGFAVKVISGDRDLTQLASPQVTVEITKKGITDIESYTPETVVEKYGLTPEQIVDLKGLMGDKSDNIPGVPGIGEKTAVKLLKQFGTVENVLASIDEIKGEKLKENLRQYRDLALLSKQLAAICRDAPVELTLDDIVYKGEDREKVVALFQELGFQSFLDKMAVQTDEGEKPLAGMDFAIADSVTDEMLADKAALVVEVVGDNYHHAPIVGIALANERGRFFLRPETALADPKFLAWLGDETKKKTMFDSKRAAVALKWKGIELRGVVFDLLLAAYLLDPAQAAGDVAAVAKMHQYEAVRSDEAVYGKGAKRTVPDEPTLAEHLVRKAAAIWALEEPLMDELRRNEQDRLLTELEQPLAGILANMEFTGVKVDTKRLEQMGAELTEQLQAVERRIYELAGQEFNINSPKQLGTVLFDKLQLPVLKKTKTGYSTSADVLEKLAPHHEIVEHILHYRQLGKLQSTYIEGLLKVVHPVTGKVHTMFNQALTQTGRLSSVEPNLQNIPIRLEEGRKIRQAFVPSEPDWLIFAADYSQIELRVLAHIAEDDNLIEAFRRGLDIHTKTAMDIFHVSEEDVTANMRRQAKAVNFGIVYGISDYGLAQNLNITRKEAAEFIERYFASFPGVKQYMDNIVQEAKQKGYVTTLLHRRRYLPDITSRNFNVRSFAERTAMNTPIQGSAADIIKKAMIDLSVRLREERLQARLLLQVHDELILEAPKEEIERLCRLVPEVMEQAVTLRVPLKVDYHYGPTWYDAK
UniProt O60762, sequence (whole entry, unmodified, looked up): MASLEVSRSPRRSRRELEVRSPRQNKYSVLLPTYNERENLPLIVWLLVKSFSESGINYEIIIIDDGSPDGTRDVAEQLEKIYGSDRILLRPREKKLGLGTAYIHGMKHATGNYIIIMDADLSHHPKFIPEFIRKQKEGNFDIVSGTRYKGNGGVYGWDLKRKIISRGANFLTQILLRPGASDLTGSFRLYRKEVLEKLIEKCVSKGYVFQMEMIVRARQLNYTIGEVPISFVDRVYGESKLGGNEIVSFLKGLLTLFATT
UniProt O96013, sequence (whole entry, looked up): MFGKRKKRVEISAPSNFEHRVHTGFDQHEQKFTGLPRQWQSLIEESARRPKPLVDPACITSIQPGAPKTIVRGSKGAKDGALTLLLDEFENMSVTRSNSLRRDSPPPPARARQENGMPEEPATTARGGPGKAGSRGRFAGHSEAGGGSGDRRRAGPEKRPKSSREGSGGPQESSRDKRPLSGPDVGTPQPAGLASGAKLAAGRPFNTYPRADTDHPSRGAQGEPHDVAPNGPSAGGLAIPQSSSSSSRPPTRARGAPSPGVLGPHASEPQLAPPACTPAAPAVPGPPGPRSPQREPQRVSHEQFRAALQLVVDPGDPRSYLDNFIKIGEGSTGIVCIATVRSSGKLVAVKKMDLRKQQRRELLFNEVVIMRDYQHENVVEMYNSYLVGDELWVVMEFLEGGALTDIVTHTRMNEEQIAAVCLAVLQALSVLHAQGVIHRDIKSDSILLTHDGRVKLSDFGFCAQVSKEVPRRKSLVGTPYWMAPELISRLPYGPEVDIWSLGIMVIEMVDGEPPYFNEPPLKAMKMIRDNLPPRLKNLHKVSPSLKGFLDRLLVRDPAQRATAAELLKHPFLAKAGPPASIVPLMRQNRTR
UniProt P41240, sequence (whole entry, looked up): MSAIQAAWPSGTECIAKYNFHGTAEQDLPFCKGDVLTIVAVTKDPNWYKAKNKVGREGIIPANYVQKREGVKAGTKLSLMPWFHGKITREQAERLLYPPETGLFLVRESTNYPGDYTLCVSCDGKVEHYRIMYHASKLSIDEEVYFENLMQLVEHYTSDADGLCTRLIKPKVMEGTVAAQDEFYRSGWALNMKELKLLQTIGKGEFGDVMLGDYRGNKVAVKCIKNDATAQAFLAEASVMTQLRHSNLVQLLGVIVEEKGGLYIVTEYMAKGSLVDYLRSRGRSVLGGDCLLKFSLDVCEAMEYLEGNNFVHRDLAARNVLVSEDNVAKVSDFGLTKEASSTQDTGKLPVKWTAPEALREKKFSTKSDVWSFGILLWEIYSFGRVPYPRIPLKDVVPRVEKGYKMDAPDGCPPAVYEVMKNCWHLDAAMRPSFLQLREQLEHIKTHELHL

The Km of `O=c1cc(-c2ccc(O)cc2)oc2c([C@@H]3O[C@H](CO)[C@@H](O)[C@H](O)[C@H]3O)c(O)cc(O)c12` is reported as 116 µM (beta-fructosidase (Glutamicibacter nicotianae); acceptor substrate; pH 6.47, 35 °C, with: sucrose 50 mM).
For `CC=O`, the Km was 12300 µM (aldehyde oxidase F10 (Pseudomonas sp. MX-058); substrate, peroxidase-coupled H2O2; pH 7.0, 30 °C, with: O2 co-substrate).
With `O=C(O)CCS` the Km was 13 ± 5 µM (Azotobacter vinelandii MDO; substrate; 20 °C, with: O2).
`O=CC=O` gave a Km of 11600 µM (aldehyde oxidase F10 (Pseudomonas sp. MX-058); substrate, peroxidase-coupled H2O2; pH 7.0, 30 °C, with: O2 co-substrate).
The Km of `Cc1cn([C@H]2C[C@H](O)[C@@H](COP(=O)(O)OP(=O)(O)OP(=O)(O)O)O2)c(=O)[nH]c1=O` is reported as 6.41 µM (polA, large fragment (Geobacillus stearothermophilus, UniProt P52026); primer extension, substrate; 3 min).
With `OO` the Km was 1930 µM (ancestral DyP peroxidase D222A; peroxidase activity, substrate; pH 3.0, 25 °C, with: ABTS 10 µM).
For `COC(=O)[C@@H](N)CCSC`, the Km was 520 ± 60 µM (S-adenosylmethionine synthetase (Campylobacter jejuni); substrate; pH 7.6, ambient, with: ATP co-substrate).
For `YKKRLSVELT`, the Km was 600 µM (PAK4 (Homo sapiens, UniProt O96013); kinase activity, substrate; peptide; pH 7.4, 30 °C, with: ATP 20 µM).
With `FEEPIYIEPIDFE` the Km was 150 ± 15 µM (CSK (Homo sapiens, UniProt P41240); substrate, enzyme-coupled; peptide; pH 7.4, room temperature, with: ATP 1 mM, MnCl2 5 mM).
The Km of `O=C(O)C(=O)O` is reported as 9 ± 1 µM (oxalyl-CoA synthetase, Methylorubrum extorquens; substrate; with: ATP and CoA co-substrates).
With `UGT1A9 (Homo sapiens, UniProt O60656)` the Km was 0.63 µM and 0.43 µM (O=C(CCc1ccc(O)cc1)c1c(O)cc(O)cc1O; steady-state kinetics; pH 7.4, 37 °C).
With `Ac-QDEVD-pNA (N-acetyl, C-pNA; pNA = O=[N+]([O-])c1ccc(N*)cc1)` the Km was 54 ± 3 µM (Caspase-3 (CASP3, Homo sapiens, UniProt P42574); substrate hydrolysis, substrate, colorimetric; pH 7.5).
The Km of `CSCC[C@H](N)C(=O)Oc1ccccc1` is reported as 1300 ± 200 µM (S-adenosylmethionine synthetase (Campylobacter jejuni); substrate; pH 7.6, ambient, with: ATP co-substrate).
`O=c1c(O)c(-c2cc(O)c(O)c(O)c2)oc2cc(O)cc(O)c12` has a Km of 9.4 µM (Cu-pirin-like protein (Stutzerimonas stutzeri); flavonol dioxygenase activity, substrate; pH 7.5, 25 °C, 5% DMSO).
With `dolichyl phosphate` the Km was 11.5 µM (Dolichol-phosphate mannosyltransferase subunit 1, with DPM2 and DPM3 (Homo sapiens, UniProt O60762, G152V); mannose transfer, substrate; fibroblast membrane fraction; patient cells, with: GDP-[3H]mannose 5 µM).
With `Cc1cc(=O)oc2cc(NC(=O)[C@H](CCCCN)NC(=O)[C@H](CC(C)C)NC(=O)[C@@H](NC(=O)OC(C)(C)C)C(C)C)ccc12` the Km was 1670 µM (Cathepsin B (CTSB, Homo sapiens, UniProt P07858, S194A); substrate).

A few entries again:
For `CC=O`, the Km was 12300 µM (aldehyde oxidase F10 (Pseudomonas sp. MX-058); substrate, peroxidase-coupled H2O2; pH 7.0, 30 °C, with: O2 co-substrate).
